Assay results from different studies.
Lines come from different studies, so protocols differ.
Target: Serine/threonine-protein kinase BRSK1 (BRSK1, Homo sapiens, UniProt Q8TDC3)

SMILES	assay	conditions	scale	quantity	result
NC(=O)[C@@H](O)C[C@H]1CCc2sc3ncnc(O[C@H]4CC[C@H](N5CCOCC5)CC4)c3c21	enzyme activity, inhibitor	10 µM		inhibition	7%
COc1cc(Nc2nc(C)cc(-c3cnn4nc(OC)ccc34)n2)cc(C(F)(F)F)c1	inhibitor	1 µM	baseline: control	remaining activity	86%
C=CC(=O)N1Cc2nc(-c3cc(-c4cc(Cl)cnc4Cl)c(F)cc3F)n(-c3ccncn3)c2C1	cell-free assay, inhibitor	1 µM		inhibition	9%
COc1c(Cl)cccc1Nc1c(-c2ccncc2C#C[C@@]2(C)CCCN2C(=O)/C=C/CN(C)C)[nH]c2c1C(=O)NCC2	binding, competition with immobilised ligand	3 µM		remaining binding	95%
Nc1ncc2c(n1)-c1c([nH]c3ccc(C4=CCOCC4)cc13)CCC2	binding, competition with immobilised ligand	1 µM		remaining binding	100%
CCN1CCN(Cc2ccc(C(=O)Nc3ccc(C)c(NCc4cnc5[nH]ccc5c4OC)c3)cc2C(F)(F)F)CC1	binding, competition with immobilised ligand	1 µM		remaining binding	100%
C=CC(=O)Nc1cccc(-c2cnc3[nH]cc(C(=O)NC(C)(C)C)c3n2)c1	enzyme activity, inhibitor	0.1 µM		inhibition	13%
Nc1ncc(-c2cc(-c3cnn(CC(F)(F)F)c3)ncc2F)nc1C(=O)NC1CNCC(F)C1 (stereo not drawn)	enzyme activity	1 µM	baseline: DMSO control	remaining activity	64.9%
Cc1cccc(O[C@H]2CCC[C@@H](C(C)CNCc3ccncc3)C2)c1 (relative stereo)	enzyme activity, inhibitor	10 µM		inhibition	2%
Cc1nc2c(F)cc(-c3nc(Nc4ccc(CNC(=O)CCCCCCC(=O)NO)cc4)ncc3F)cc2n1C(C)C	enzyme activity, inhibitor	1 µM		inhibition	77%
CCn1cc(C(=O)O)c(=O)c2c(N)c(F)c(NC3CCCCC3)cc21	kinase activity	0.1 µM, added: ATP at Km		inhibition	8.3%
C=CC(=O)N1CCCC(n2c(=O)c3ncccc3n(Cc3ccc(Oc4ccccc4)cc3)c2=O)C1 (stereo not drawn)	cell-free assay, competition with immobilised ligand	1 µM		remaining binding	100%
CNC(=O)C1CCN(c2cc(C)c(F)cc2NC(=O)c2ccc(-c3cc(O)ccc3C)c(C)c2)CC1	binding, competition with immobilised ligand	1 µM		remaining binding	83%
CNC1C[S+]2CC[S+]3CC[S+](C1)[Ru-4]321([N]=C=S)[n]2c3ccc(OC)cc3c3c4c(c5cc(F)c[n+]1c5c32)C(=O)NC4=O (stereo not drawn)	KinomeScan	0.1 µM	baseline: untreated	remaining binding	100%
CN1CC[C@@H](COc2cnc(C#N)cc2-c2ccn3nc(NC(=O)C4CC4)cc3c2)C1	enzyme activity, inhibitor	1 µM		inhibition	7%

Some of these lines once more:
SMILES	assay	conditions	scale	quantity	result
CNC(=O)C1CCN(c2cc(C)c(F)cc2NC(=O)c2ccc(-c3cc(O)ccc3C)c(C)c2)CC1	binding, competition with immobilised ligand	1 µM		remaining binding	83%
CNC1C[S+]2CC[S+]3CC[S+](C1)[Ru-4]321([N]=C=S)[n]2c3ccc(OC)cc3c3c4c(c5cc(F)c[n+]1c5c32)C(=O)NC4=O (stereo not drawn)	KinomeScan	0.1 µM	baseline: untreated	remaining binding	100%
